Results collected from several papers.
Lines come from different studies, so protocols differ. ± gives the spread as reported.

Protein sequences, listed by entry. Tags and fused reporters are not part of them. Residues count along the entry.
UniProt P41145, whole entry: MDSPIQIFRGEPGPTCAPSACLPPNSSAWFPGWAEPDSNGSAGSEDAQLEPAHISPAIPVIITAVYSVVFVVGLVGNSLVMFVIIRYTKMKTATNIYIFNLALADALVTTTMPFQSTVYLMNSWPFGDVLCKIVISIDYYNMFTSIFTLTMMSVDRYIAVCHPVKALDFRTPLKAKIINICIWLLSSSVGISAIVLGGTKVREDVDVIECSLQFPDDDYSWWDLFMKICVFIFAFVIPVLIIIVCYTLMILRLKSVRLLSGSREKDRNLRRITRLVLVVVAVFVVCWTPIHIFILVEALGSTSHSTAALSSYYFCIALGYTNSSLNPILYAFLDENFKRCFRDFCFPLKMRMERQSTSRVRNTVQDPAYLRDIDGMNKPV
UniProt P0DMM5, whole entry: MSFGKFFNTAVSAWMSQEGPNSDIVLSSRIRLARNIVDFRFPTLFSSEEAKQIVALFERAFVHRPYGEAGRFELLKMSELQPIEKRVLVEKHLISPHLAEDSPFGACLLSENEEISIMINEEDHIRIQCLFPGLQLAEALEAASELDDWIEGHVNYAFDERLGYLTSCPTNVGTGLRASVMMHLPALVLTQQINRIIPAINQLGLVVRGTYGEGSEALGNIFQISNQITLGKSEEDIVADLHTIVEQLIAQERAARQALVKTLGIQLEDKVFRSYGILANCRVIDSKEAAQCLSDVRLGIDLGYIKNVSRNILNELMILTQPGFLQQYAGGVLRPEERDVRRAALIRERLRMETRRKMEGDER
UniProt Q9KTW3, 1-489: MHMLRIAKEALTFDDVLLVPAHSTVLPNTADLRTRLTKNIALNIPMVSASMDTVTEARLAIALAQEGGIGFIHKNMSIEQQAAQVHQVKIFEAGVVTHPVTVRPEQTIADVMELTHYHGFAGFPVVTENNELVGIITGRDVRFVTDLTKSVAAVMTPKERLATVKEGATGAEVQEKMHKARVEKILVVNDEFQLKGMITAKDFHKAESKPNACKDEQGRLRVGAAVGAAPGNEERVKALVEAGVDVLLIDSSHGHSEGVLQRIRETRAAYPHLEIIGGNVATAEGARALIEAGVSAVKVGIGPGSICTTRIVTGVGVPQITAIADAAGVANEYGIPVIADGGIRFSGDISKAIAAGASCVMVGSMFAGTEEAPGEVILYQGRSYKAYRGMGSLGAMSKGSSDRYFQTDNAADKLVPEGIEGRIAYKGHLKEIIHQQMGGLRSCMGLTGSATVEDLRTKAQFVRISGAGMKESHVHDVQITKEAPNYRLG
UniProt P67660, whole entry E104A, looked up: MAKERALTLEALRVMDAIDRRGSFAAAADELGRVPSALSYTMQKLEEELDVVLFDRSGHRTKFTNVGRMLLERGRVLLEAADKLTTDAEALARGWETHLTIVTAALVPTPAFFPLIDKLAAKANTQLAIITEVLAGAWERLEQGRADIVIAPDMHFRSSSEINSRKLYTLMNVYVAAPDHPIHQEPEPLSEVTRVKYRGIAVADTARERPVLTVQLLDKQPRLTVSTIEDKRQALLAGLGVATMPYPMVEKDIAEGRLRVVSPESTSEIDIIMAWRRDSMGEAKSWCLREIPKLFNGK
UniProt Q869C3, whole entry, looked up: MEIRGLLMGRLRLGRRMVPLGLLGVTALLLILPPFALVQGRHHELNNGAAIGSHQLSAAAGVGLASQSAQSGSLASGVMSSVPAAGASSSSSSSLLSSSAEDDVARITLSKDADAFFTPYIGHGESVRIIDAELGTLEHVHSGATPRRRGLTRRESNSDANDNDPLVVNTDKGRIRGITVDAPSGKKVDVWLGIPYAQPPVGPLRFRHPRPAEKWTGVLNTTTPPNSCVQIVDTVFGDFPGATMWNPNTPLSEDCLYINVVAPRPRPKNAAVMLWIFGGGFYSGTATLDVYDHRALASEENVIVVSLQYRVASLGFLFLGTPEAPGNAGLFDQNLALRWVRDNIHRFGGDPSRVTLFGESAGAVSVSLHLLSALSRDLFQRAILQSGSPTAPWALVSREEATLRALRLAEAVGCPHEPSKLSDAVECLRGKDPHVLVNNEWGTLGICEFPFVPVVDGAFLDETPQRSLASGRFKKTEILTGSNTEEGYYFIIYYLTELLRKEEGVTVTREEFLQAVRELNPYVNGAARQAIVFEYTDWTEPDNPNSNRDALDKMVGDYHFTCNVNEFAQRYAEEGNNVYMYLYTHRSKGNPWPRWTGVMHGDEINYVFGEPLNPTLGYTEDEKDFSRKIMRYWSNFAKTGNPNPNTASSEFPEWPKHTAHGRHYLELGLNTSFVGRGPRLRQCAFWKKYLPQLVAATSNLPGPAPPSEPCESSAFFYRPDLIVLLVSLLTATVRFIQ
UniProt A0A1D2IX29, 1-331: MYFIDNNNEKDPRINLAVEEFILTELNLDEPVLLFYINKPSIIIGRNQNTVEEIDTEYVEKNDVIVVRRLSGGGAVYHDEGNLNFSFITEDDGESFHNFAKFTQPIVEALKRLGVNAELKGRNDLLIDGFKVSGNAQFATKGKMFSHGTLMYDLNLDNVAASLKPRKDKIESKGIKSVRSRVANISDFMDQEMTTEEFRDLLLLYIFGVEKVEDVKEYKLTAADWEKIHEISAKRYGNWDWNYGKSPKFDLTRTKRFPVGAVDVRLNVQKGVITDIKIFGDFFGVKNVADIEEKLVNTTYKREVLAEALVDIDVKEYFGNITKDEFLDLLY
UniProt O25069, 1-549: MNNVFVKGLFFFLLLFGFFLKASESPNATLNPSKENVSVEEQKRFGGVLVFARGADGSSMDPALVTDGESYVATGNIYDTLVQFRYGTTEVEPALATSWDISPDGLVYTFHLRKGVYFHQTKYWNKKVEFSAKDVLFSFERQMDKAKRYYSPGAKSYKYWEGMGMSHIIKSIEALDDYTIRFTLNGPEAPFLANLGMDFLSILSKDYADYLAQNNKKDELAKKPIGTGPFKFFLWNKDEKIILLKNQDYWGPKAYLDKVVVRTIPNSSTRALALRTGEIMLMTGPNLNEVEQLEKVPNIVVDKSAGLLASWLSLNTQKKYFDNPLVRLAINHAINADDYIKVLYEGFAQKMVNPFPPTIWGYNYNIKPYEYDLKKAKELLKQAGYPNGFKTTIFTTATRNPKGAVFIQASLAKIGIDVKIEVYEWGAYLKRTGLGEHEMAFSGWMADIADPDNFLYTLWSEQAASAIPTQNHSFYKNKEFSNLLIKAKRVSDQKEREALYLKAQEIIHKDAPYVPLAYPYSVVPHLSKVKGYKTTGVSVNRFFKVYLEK
UniProt A0A0A1EQY0, 1-364: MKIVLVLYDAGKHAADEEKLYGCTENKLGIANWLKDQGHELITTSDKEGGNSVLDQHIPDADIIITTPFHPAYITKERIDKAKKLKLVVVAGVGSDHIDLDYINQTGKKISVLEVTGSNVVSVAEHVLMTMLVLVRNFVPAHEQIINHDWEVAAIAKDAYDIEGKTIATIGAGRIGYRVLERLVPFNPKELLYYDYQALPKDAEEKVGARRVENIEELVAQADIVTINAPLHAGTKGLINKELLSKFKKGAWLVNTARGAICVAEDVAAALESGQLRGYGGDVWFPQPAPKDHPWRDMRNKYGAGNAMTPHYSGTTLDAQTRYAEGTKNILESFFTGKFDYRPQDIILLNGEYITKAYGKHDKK
UniProt O42275, 24-633 limits assumed: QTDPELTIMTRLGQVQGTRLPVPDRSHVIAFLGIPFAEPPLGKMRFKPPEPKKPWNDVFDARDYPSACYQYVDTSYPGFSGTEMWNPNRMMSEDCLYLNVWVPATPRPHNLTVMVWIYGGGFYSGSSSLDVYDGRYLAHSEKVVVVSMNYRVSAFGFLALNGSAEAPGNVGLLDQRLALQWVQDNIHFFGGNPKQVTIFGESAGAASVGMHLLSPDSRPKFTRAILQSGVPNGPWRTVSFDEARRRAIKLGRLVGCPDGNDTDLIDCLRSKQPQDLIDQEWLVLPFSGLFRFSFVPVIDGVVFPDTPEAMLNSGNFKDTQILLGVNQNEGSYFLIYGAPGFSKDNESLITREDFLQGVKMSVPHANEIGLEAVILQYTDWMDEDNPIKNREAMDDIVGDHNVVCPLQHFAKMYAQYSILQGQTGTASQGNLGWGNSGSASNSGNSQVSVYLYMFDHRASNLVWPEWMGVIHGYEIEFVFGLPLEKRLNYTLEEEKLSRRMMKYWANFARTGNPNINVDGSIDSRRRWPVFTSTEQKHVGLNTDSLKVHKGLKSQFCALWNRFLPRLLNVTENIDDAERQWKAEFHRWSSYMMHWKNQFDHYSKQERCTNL
UniProt Q8IEG9, whole entry, looked up: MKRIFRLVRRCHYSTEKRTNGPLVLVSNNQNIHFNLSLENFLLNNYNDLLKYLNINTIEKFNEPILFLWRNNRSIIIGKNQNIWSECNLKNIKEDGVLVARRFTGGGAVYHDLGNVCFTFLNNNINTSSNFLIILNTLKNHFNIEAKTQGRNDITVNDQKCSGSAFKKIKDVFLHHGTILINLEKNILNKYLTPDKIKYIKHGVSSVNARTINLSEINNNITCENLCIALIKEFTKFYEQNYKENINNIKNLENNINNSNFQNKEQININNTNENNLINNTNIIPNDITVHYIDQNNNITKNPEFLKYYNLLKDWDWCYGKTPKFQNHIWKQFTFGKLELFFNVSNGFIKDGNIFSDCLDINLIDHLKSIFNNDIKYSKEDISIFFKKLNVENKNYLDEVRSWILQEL
UniProt Q7T069, 1-388: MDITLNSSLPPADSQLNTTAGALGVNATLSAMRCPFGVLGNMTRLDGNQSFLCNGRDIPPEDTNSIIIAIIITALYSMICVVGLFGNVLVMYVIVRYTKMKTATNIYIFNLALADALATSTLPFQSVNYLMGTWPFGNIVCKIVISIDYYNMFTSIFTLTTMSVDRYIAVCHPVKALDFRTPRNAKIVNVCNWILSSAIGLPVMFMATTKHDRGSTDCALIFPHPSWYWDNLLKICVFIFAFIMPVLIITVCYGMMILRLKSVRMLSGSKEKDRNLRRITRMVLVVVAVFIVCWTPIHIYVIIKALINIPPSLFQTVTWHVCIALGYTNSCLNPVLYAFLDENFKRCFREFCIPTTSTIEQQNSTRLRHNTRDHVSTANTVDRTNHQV

Molecule | target | test | system | conditions | Kd
[3H]diprenorphine | Kappa-type opioid receptor (OPRK1, Homo sapiens, UniProt P41145) | radioligand, saturation binding | N2a cell membranes | 1 h, pH 7.4, room temperature, added: [3H]diprenorphine | 0.00015 ± 1e-05 µM
N=C(NCCC[C@H](N)C(=O)O)NP(=O)(O)O | Protein-arginine kinase (mcsB, Geobacillus stearothermophilus, UniProt P0DMM5) | SPR | – | – | 850 ± 400 µM
O=C(Cn1c(-c2ccccn2)nc2ccccc21)Nc1ccc2ccccc2c1 | guaB (Vibrio cholerae, UniProt Q9KTW3) | binding, biolayer interferometry | – | 25 °C, added: IMP 1 mM, NAD+ | > 5 µM
[N-]=[N+]=[N-] | Azurin, iron(II)-substituted (azu, Pseudomonas aeruginosa, UniProt P00282, M141A) | 1H NMR titration | – | pH 7, Fe(II)-substituted protein | ~20000 µM
Cc1cc(O)ccc1O | Probable HTH-type transcriptional regulator YhaJ, effector-binding domain (yhaJ, Escherichia coli, UniProt P67660, E104A) | microscale thermophoresis | – | pH 7.5 | 18900 ± 5300 µM
CNC(=O)Oc1cccc2ccccc12 | Acetylcholinesterase (Ace, Anopheles gambiae, UniProt Q869C3) | enzyme inhibition, inhibitor | – | added: acetylthiocholine 600 µM | 4.7 ± 1.63 µM
O=C(O)CCCC[C@@H]1CCSS1 | Lipoate-protein ligase A1 (Listeria monocytogenes, UniProt A0A1D2IX29) | isothermal titration calorimetry | – | – | 1.9 µM
C[C@H](NC(=O)[C@H](CO)NC(=O)[C@@H](NC(=O)[C@@H](N)CO)[C@@H](C)O)C(=O)O | Dipeptide-binding protein DppA (Helicobacter pylori, UniProt O25069) | thermal shift | – | at Tm, zero heat capacity model | 34 ± 5 µM
neutrophil inhibitory factor | Integrin beta-2 (Homo sapiens, UniProt P05107) | binding, solid-phase binding | – | – | > 100 µM
[N-]=[N+]=[N-] | FDH ([Candida] boidinii, UniProt A0A0A1EQY0) | binding, isothermal titration calorimetry | Candida boidinii | added: NAD+ | 0.043 ± 0.005 µM
COc1cc2oc3ccc(O)cc3c(=O)c2c(OC)c1OC | Acetylcholinesterase (ache, Electrophorus electricus, UniProt O42275) | surface plasmon resonance | – | 25 °C | 87.7 µM
CNC(=O)CCCCC1CCSS1 (stereo not shown) | Lipoate--protein ligase 1 (LipL1, Plasmodium falciparum, UniProt Q8IEG9) | isothermal titration calorimetry | – | – | 38 µM
CO[C@]12CC[C@@]3(C[C@@H]1C(C)(C)O)[C@H]1Cc4ccc(O)c5c4[C@@]3(CCN1CC1CC1)[C@H]2O5 | Mu-type opioid receptor (Lithobates pipiens, UniProt Q7T069) | radioligand saturation binding | HEK-293T transfected | frog mu opioid receptor | 0.0022 ± 0.0009 µM

Some of these lines once more:
Molecule | target | test | system | conditions | Kd
Cc1cc(O)ccc1O | Probable HTH-type transcriptional regulator YhaJ, effector-binding domain (yhaJ, Escherichia coli, UniProt P67660, E104A) | microscale thermophoresis | – | pH 7.5 | 18900 ± 5300 µM
CNC(=O)Oc1cccc2ccccc12 | Acetylcholinesterase (Ace, Anopheles gambiae, UniProt Q869C3) | enzyme inhibition, inhibitor | – | added: acetylthiocholine 600 µM | 4.7 ± 1.63 µM
